# Measurements pooled from the literature.
# Lines come from different studies, so protocols differ.
SMILES,organism,assay,system,setting,scale,measurement,result
CC[C@@H](C)[C@@H](NC(=O)[C@@H](C)NC(=O)[C@@H](CCCCN)NC(=O)[C@@H](CC(C)C)NC(=O)[C@@H](C)NC(=O)[C@H](NC(=O)[C@@H](Cc1c[nH]cn1)NC(=O)[C@@H](CC(C)C)NC(=O)[C@H](NC(=O)[C@H](NC(=O)[C@@H](CCCCN)NC(=O)[C@@H](CCCCN)NC(=O)[C@@H](C)NC(=O)[C@@H](CO)NC(=O)[C@@H](CCCCN)NC(=O)[C@@H](Cc1ccccc1)NC(=O)[C@H](NC(=O)[C@@H](CCCCN)NC(=O)[C@@H](CC(C)C)NC(=O)[C@@H](Cc1ccccc1)NC(=O)[C@@H](CO)NC(=O)[C@@H](CCCCN)NC(=O)[C@@H](Cc1c[nH]c2ccccc12)NC(=O)[C@@H](CCCCN)NC(C)=O)[C@H](C)O)[C@H](C)O)C(C)C)[C@H](C)O)C(=O)N[C@H](CO)C(=O)N[C@H](CO)C(N)=O,Absidia corymbifera,,clinical isolate,"48 h, 30 °C",,MIC90,12.5 µg/mL
CC(=O)c1c(O)c(C)c(O)c2c1OC1=CC(=O)/C3=C(/C)N[C@H](C(=O)O)CC1=CC=CC=C[C@@]2(C)C3=O,Candida tropicalis,,,,,MFC/MIC ratio,63.5
C=CCc1ccc(OCC=C(C)C)c(OC)c1,Spodoptera frugiperda,,larvae,500 µg/mL,relative to: untreated control,antifeedant index,53.8%
CC[C@H](C)[C@H](NC(=O)[C@H](CCCCN)NC(=O)[C@H](CCCCN)NC(=O)[C@H](CC(C)C)NC(=O)[C@H](CCCCN)NC(=O)[C@H](CCC(=O)O)NC(=O)[C@H](CCCCN)NC(=O)[C@@H](NC(=O)[C@H](CCCCN)NC(=O)[C@H](CC(N)=O)NC(=O)[C@H](CCCNC(=N)N)NC(=O)[C@H](Cc1ccccc1)NC(=O)[C@H](CCCCN)NC(=O)[C@H](CCCNC(=N)N)NC(=O)[C@H](CC(C)C)NC(=O)[C@H](CCCNC(=N)N)NC(=O)[C@H](CCCCN)NC(=O)[C@H](CCCNC(=N)N)NC(=O)[C@H](CC(C)C)NC(=O)[C@@H](N)CCCNC(=N)N)[C@@H](C)CC)C(=O)NCC(=O)N[C@@H](CCC(N)=O)C(=O)N[C@@H](CCCCN)C(=O)N[C@H](C(=O)N[C@@H](CCC(N)=O)C(=O)NCC(=O)N[C@@H](Cc1ccccc1)C(=O)N[C@H](C(=O)N1CCC[C@H]1C(=O)N[C@@H](CCCCN)C(=O)N[C@@H](CC(C)C)C(=O)N[C@@H](CCC(N)=O)C(=O)N1CCC[C@H]1C(=O)N[C@@H](CO)C(=O)N[C@@H](CCCCN)C(=O)N[C@@H](CCC(N)=O)C(=O)N[C@@H](CO)C(=O)O)C(C)C)[C@@H](C)CC,Alcaligenes faecalis,inhibition zone,CGMCC 1.184,,,lethal concentration,2.65 µM
C=C(C)[C@@H]1CCC=C2CC[C@]3(C)[C@H](CC[C@@H]4[C@@]5(C)CCCNC(C)(C)[C@@H]5CC[C@]43C)[C@H]21,Human alphaherpesvirus 1,,"HFF, E-377",,relative to: CC50 over EC50,selectivity index,< 2
CC[C@H](C)[C@H](NC(=O)[C@H](CCCCN)NC(=O)[C@H](CCCCN)NC(=O)[C@H](CC(C)C)NC(=O)[C@H](CCCCN)NC(=O)[C@H](CCC(=O)O)NC(=O)[C@H](CCCCN)NC(=O)[C@@H](NC(=O)[C@H](CCCCN)NC(=O)[C@H](CC(N)=O)NC(=O)[C@H](CCCNC(=N)N)NC(=O)[C@H](Cc1ccccc1)NC(=O)[C@H](CCCCN)NC(=O)[C@H](CCCNC(=N)N)NC(=O)[C@H](CC(C)C)NC(=O)[C@H](CCCNC(=N)N)NC(=O)[C@H](CCCCN)NC(=O)[C@H](CCCNC(=N)N)NC(=O)[C@H](CC(C)C)NC(=O)[C@@H](N)CC(C)C)[C@@H](C)CC)C(=O)NCC(=O)N[C@@H](CCC(N)=O)C(=O)N[C@@H](CCCCN)C(=O)N[C@H](C(=O)N[C@@H](CCC(N)=O)C(=O)NCC(=O)N[C@@H](Cc1ccccc1)C(=O)N[C@H](C(=O)N1CCC[C@H]1C(=O)N[C@@H](CCCCN)C(=O)N[C@@H](CC(C)C)C(=O)N[C@H](C(=O)N1CCC[C@H]1C(=O)N[C@@H](CCCNC(=N)N)C(=O)N[C@H](C(=O)N[C@@H](CCC(=O)O)C(=O)N[C@@H](CO)C(=O)O)[C@@H](C)O)C(C)C)C(C)C)[C@@H](C)CC,Staphylococcus warneri,inhibition zone,ATCC 1.2824,"LB agar, overnight",,lethal concentration,1 µM
C=CCc1ccc(OCC(=C)C)c(OC)c1,Spodoptera frugiperda,,larvae,25 µg/mL,relative to: untreated control,antifeedant index,11%
O=C(Cn1ccc(=O)c2ccccc21)N/N=C/c1cc(Br)c(O)c(Br)c1,Botrytis cinerea,microbial growth,,50 µg/mL,,inhibition,25%
CC(=O)O[C@H]1C[C@@H](C)O[C@H]2O[C@@H]3C[C@@H]4CC[C@@H]5[C@H](CC[C@]6(C)[C@@H](C7=CC(=O)OC7)CC[C@]56O)[C@@]4(C)C[C@H]3O[C@]21O,Schistosoma mansoni,microscopic viability score,adult worms,"1 µM, 72 h",,viability effect,84%
CON(C(=O)c1cn(C)nc1C(F)F)C(C)Cc1c(Cl)cc(Cl)cc1Cl (stereo not drawn),Ustilaginoidea virens,microbial growth,,1.56 µg/mL,,inhibition,100%
C=C(C)[C@@H]1CC[C@]2(C(=O)NC(CO)Cc3ccccc3)CC[C@]3(C)[C@H](CC[C@@H]4[C@@]5(C)CCCNC(C)(C)[C@@H]5CC[C@]43C)[C@@H]12 (stereo partly drawn),Human alphaherpesvirus 1,,"HFF, E-377",,relative to: CC50 over EC50,selectivity index,< 3
C=CCc1ccc(OCc2ccccc2)c(OC)c1,Spodoptera frugiperda,,larvae,250 µg/mL,relative to: untreated control,antifeedant index,42.5%
CCOC(=O)c1c(-c2ccccc2)oc2ccc(NS(=O)(=O)c3ccc(F)cc3)cc12,porcine epidemic diarrhea virus,,,"15 µM, 15 h post-infection",,viral replication,inhibited
CC(=O)N[C@H](CCCCN)C(=O)N[C@H](CC(C)C)C(=O)N[C@H](CCCCN)C(=O)N[C@H](CO)C(=O)N[C@H](CC(C)C)C(=O)N[C@H](CC(C)C)C(=O)N[C@H](CCCCN)C(=O)N[C@@H](C(=O)N[C@H](CC(C)C)C(=O)N[C@H](CO)C(=O)N[C@H](CCCCN)C(=O)N[C@H](C)C(=O)N[C@H](CCCCN)C(=O)N[C@H](CCCCN)C(=O)N[C@H](CCCCN)C(=O)N[C@H](CC(C)C)C(=O)N[C@H](CC(C)C)C(=O)N[C@H](CCCCN)C(=O)N[C@@H](C(=O)N[C@H](C)C(=O)N[C@H](CC(C)C)C(=O)N[C@H](CCCCN)C(=O)N[C@H](C)C(=O)N[C@H](CC(C)C)C(=O)N[C@H](CO)C(=O)N[C@H](CCCCN)C(N)=O)[C@H](C)O)[C@H](C)O,Acinetobacter baumannii,,11 isolates,,relative to: HC50 over geometric mean MIC,therapeutic index,339
CC(C)C[C@H](NC(=O)[C@H](Cc1c[nH]c2ccccc12)NC(=O)[C@@H]1CCCN1C(=O)[C@@H](NC(=O)[C@H](CCCNC(=N)N)NC(=O)[C@@H]1CCCN1C(=O)[C@H](CCC(N)=O)NC(=O)[C@@H]1CCCN1C(=O)[C@H](CCCNC(=N)N)NC(=O)[C@@H]1CCCN1C(=O)[C@H](Cc1ccccc1)NC(=O)[C@H](Cc1ccccc1)NC(=O)[C@H](CCC(N)=O)NC(=O)[C@H](CCCNC(=N)N)NC(=O)[C@@H]1CCCN1C(=O)[C@H](CC(C)C)NC(=O)[C@H](CCCNC(=N)N)NC(=O)[C@H](CCCNC(=N)N)NC(=O)[C@H](CC(C)C)NC(=O)[C@@H](NC(=O)[C@H](CCCNC(=N)N)NC(=O)[C@H](CCC(N)=O)NC(=O)[C@@H](N)Cc1ccc(O)cc1)C(C)C)[C@@H](C)O)C(=O)O,Gram-negative bacteria,MIC,,concentration not given,,antibacterial activity,active
CCCCCCCCCCCCCC(=O)N[C@H](CCN)C(=O)N[C@H](C(=O)N[C@@H](CCN)C(=O)N[C@@H](CC(C)C)C(=O)N[C@@H](CCN)C(=O)N[C@H](Cc1ccccc1)C(=O)N[C@@H](CC(C)C)C(=O)N[C@@H](CCN)C(=O)N[C@H](Cc1ccc(O)cc1)C(=O)N[C@H](C(=O)N[C@@H](CC(=O)O)C(=O)O)C(C)C)[C@@H](C)O,ESKAPE pathogens,,,concentration not given,relative to: MIC with serum over without,MIC fold change with serum,8 fold
CC(C)C[C@@H]1NC(=O)[C@H](CCCCN)NC(=O)[C@H](C(C)C)NC(=O)[C@@H]2CCCN2C(=O)[C@@H](Cc2ccc(O)cc2)NC(=O)[C@H](CC(C)C)NC(=O)[C@H](CCCCN)NC(=O)[C@H](C(C)C)NC(=O)[C@H](CCCCN)NC(=O)[C@H](CC(C)C)NC(=O)[C@H](CCCCN)NC(=O)[C@@H]2CCCN2C(=O)[C@@H](Cc2ccc(O)cc2)NC(=O)[C@H](CCCCN)NC(=O)[C@H](C(C)C)NC(=O)[C@H](CCCCN)NC1=O,Gram-negative bacteria,,,"24 h, 7 strains",,MIC geometric mean,19.5 µg/mL
CC(=O)Nc1cccc(CNC(=O)c2cnc3ccccc3c2C(F)(F)F)c1,Drosophila melanogaster,,APP transgenic (Alzheimer model),"in food, 100 µM, 168 h, from adult day 7",,median survival,40 days

# A few entries again:
SMILES,organism,assay,system,setting,scale,measurement,result
CC(=O)N[C@H](CCCCN)C(=O)N[C@H](CC(C)C)C(=O)N[C@H](CCCCN)C(=O)N[C@H](CO)C(=O)N[C@H](CC(C)C)C(=O)N[C@H](CC(C)C)C(=O)N[C@H](CCCCN)C(=O)N[C@@H](C(=O)N[C@H](CC(C)C)C(=O)N[C@H](CO)C(=O)N[C@H](CCCCN)C(=O)N[C@H](C)C(=O)N[C@H](CCCCN)C(=O)N[C@H](CCCCN)C(=O)N[C@H](CCCCN)C(=O)N[C@H](CC(C)C)C(=O)N[C@H](CC(C)C)C(=O)N[C@H](CCCCN)C(=O)N[C@@H](C(=O)N[C@H](C)C(=O)N[C@H](CC(C)C)C(=O)N[C@H](CCCCN)C(=O)N[C@H](C)C(=O)N[C@H](CC(C)C)C(=O)N[C@H](CO)C(=O)N[C@H](CCCCN)C(N)=O)[C@H](C)O)[C@H](C)O,Acinetobacter baumannii,,11 isolates,,relative to: HC50 over geometric mean MIC,therapeutic index,339
C=CCc1ccc(OCC(=C)C)c(OC)c1,Spodoptera frugiperda,,larvae,25 µg/mL,relative to: untreated control,antifeedant index,11%
